Experimental data collected from several papers.
Parts stem from different laboratories: compare values within a part only. Substitutions count along the parent as printed.

Sample 1
Target: Interferon regulatory factor 3, full length, phosphomimetic (IRF3, Homo sapiens, UniProt Q14653, residues 1-427, S386D/S396D/S398D/S402D/T404D/S405D)
Method: protein-binding microarray
Molecule type: double-stranded DNA, one strand shown
Sample: in vitro
Tested at: 2540 nM top
Notes: 60-bp whole probe
Together with: salmon DNA 0.4 mg/ml
Relative to: random background probes
Reading: higher = stronger binding
Constant ends, left off below: GCCTAGCAC … GTCTTGATTCGCTTGACGCTGCTG
Target sequence (chain): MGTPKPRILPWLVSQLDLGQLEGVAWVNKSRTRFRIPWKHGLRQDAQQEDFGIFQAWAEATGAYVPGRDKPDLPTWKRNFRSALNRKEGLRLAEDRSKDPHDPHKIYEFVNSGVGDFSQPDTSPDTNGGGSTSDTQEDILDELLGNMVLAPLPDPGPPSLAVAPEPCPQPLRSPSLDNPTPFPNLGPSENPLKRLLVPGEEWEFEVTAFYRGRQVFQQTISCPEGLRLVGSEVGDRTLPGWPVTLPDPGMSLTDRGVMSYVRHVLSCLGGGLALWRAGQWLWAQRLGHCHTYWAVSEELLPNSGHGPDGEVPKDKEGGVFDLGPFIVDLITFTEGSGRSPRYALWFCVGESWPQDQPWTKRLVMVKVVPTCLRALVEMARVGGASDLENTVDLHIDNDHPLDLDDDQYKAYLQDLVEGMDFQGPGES
Oligonucleotide | fitted relative affinity [z-score]
AGCTCTTTCGTTACTTCCTCGTGCTAG | 1.68
TTACGTATCGGGACTGGGTTAGTGCTA | 1.54
TCACATATAATTTTGTCACTGTGCTAG | 0.457
TTAGGTTTCGGGGATCGGTTAGTGCTA | 2.32
GACGGTATCCTTCTCTTGACGTGCTAG | 6.53
TTAGAACTGGGTTTTCGATTAGTGCTA | 0.776
TTAGGACAGCTTATCCTTTAGTGCTAG | -0.0911
GACGATTTGAGTTTCGAGACGTGCTAG | 1.54
GACGGACTGGGTCTCGGGACGTGCTAG | -0.856
TCATTTTGCACTCTCTAACTGTGCTAG | 1.7
TCACTAATCTCACTCTGACTGTGCTAG | 0.391
TTCGAACTGAGTCTCGATTAGTGCTAG | -0.0892
AAAACTAGGGCATTTAGAAAAGTGCTA | -0.106
GCAGGTCTGGACCCAGACTCGTGCTAG | 0.0501

Sample 2
Target: Histone acetyltransferase KAT6A, winged helix 2, GST fusion (KAT6A, Homo sapiens, UniProt Q92794, residues 85-181)
Method: protein binding microarray
Molecule type: double-stranded DNA, one strand shown
Sample: in vitro
Tested at: not given
Notes: 8-mer, flanks averaged, mean of 2 arrays, mostly near background
Relative to: not given
Reading: higher = stronger binding
Construct (chain): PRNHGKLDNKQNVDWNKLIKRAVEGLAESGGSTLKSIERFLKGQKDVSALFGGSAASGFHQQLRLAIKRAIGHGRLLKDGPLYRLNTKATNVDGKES
Oligonucleotide | E-score
AGGTCTAT | -0.171
GGGCCCAA | 0.105
CATGCCCC | -0.109
CCCTCACA | 0.127
CCAATGGA | 0.0781
CCAAGCCC | -0.0924
AATGTCCT | -0.284
GAATTGGA | -0.0401
AGGGAGCG | 0.0829

Sample 3
Target: CCNB3, cyclin fold, Cln2 fusion (human)
Method: yeast growth competition, sequencing
Sample: yeast
Notes: weak parent motif
Relative to: not given
Reading: higher = stronger binding
Starting sequence: ORC1 docking peptide (human); PRARKRLELGNLG; partner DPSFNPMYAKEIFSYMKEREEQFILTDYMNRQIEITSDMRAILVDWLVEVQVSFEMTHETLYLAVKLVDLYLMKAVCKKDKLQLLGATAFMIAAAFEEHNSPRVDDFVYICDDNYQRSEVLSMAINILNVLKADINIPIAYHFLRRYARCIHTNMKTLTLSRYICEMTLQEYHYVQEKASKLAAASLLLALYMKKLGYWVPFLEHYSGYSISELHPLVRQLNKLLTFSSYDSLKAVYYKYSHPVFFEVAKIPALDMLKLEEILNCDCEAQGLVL
Change | normalised enrichment score
PRARKRLELGNQG [L12Q] | 0.218
PRAMKRLELGNLG [R4M] | 0.13
PRALKRLELGNLG [R4L] | 0.23
PRARKRLPLGNLG [E8P] | 0.145
PRARKRLMLGNLG [E8M] | 0.025
PRARKRLELMNLG [G10M] | 0.36
PRARKRRELGNLG [L7R] | 0.361

Single results of other studies
Substance | target | test | test system | conditions | how to read | endpoint | result
PhoQ, residues 284 288 289 292 302 303 SACGEM | PhoP, residues 12 14 15 18 19 VHSCL (Escherichia coli, UniProt P23836) | Sort-seq, refers to: YFP reporter | E. coli | PhoQ-PhoP variant library, together with: 10 µM Mg2+ | relative to: high Mg2+ state, higher = stronger signaling | fold induction | 2.58

Some of these lines once more (sample 2):
Oligonucleotide | E-score
CCAAGCCC | -0.0924
AGGGAGCG | 0.0829
CCAATGGA | 0.0781
CATGCCCC | -0.109
